Measurements of several laboratories.
Each line is one published result; not all experiments were run side by side. ± marks the error that the study gave.
rep nsp14 N7-methyltransferase: Replicase polyprotein 1ab, nsp14 N7-methyltransferase (rep, Severe acute respiratory syndrome coronavirus 2, UniProt P0DTD1)
rep main protease: Replicase polyprotein 1ab, main protease (rep, Severe acute respiratory syndrome coronavirus 2, UniProt P0DTD1)

For CNC(=O)[C@@H](NC(=O)[C@H](CC(C)C)[C@H](O)C(=O)NO)C(C)(C)C, the survival was 0% (mouse; intravenous, 60 µg/mouse, 24 h, together with: 2.5 LD50 Daboia russelii venom, preincubated).
With Cc1ccc2nc(-c3ccc(-c4ccccc4C(=O)O)o3)cc(C(=O)O)c2c1 the Hill slope was 1.1 ± 0.06 (rep nsp14 N7-methyltransferase; N7-methyltransferase activity, inhibitor, Py-FLINT).
With Cc1nn(CC(=O)N2C[C@H]3C[C@@H]2CC[C@H]3NC(=O)C=C2C3CC4CC(C3)CC2C4)c(=O)n1C the inhibition was 11.6% (rep main protease; enzyme activity, inhibitor; 5 µM, mean of runs).
CC[C@H](C)[C@H](NC(=O)[C@H](CC(C)C)NC(=O)[C@H](Cc1c[nH]c2ccccc12)NC(=O)[C@H](CCC(N)=O)NC(=O)[C@@H](NC(=O)[C@H](Cc1ccccc1)NC(=O)[C@H](C)NC(=O)[C@H](CCCCNC(=O)COCCOCCNC(=O)COCCOCCNC(=O)CC[C@H](NC(=O)CCCCCCCCCCCCCCCCCCC(=O)O)C(=O)O)NC(=O)[C@H](CCC(N)=O)NC(=O)[C@H](C)NC(=O)[C@@H](NC(=O)[C@H](CCCCN)NC(=O)[C@H](CC(=O)O)NC(=O)[C@H](CC(C)C)NC(=O)C(C)(C)NC(=O)[C@@H](NC(=O)[C@H](CO)NC(=O)[C@H](Cc1ccc(O)cc1)NC(=O)[C@H](CC(=O)O)NC(=O)[C@H](CO)NC(=O)[C@@H](NC(=O)[C@H](Cc1ccccc1)NC(=O)[C@@H](NC(=O)CNC(=O)[C@H](CCC(=O)O)NC(=O)C(C)(C)NC(=O)[C@@H](N)Cc1ccc(O)cc1)[C@@H](C)O)[C@@H](C)O)[C@@H](C)CC)[C@@H](C)CC)C(C)C)C(=O)N[C@@H](C)C(=O)NCC(=O)NCC(=O)N1CCC[C@H]1C(=O)N[C@@H](CO)C(=O)N[C@@H](CO)C(=O)NCC(=O)N[C@@H](C)C(=O)N1CCC[C@H]1C(=O)N1CCC[C@H]1C(=O)N1CCC[C@H]1C(=O)N[C@@H](CO)C(N)=O has a serum lipase of 21 ± 11 U/L (healthy subjects, single ascending dose; 1.0 mg, baseline).
With C[C@H]1CC[C@@]2(OC1)O[C@H]1C[C@H]3[C@@H]4CC[C@@H]5C[C@@H](O[C@@H]6O[C@H](CO)[C@H](O)[C@H](O)[C@H]6O[C@@H]6O[C@H](CO)[C@@H](O)[C@H](O)[C@H]6O)CC[C@]5(C)[C@H]4CC[C@]3(C)[C@H]1[C@@H]2C the Kd was 13.4 µM (Spike glycoprotein (Severe acute respiratory syndrome coronavirus 2, UniProt P0DTC2); binding, BLI).
For Nc1ncnc2c([C@@H]3N[C@H](CO)[C@@H](O)[C@H]3O)c[nH]c12, the inhibition was 100% (Marburg marburgvirus; virus production; HeLa, Musoke; 100 µM).
CCOc1nc2cccc(C(=O)OC(C)OC(=O)OC3CCCCC3)c2n1Cc1ccc(-c2ccccc2-c2nnn[nH]2)cc1 (stereo not drawn) has a Hill slope of 2.62 ± 0.28 (rep nsp14 N7-methyltransferase; N7-methyltransferase activity, inhibitor, Py-FLINT).
With C=Cc1cc(O)cc2ccc3c(C)c(O)ccc3c12 the inhibition was -1.15% (rep main protease; reporter gene (mKate2), inhibitor; 20 µM).
Under “any TEAE, severe severity”, Cn1cnc(Cn2c(=O)[nH]/c(=N\c3cc4cn(C)nc4cc3Cl)n(Cc3cc(F)c(F)cc3F)c2=O)n1 is recorded as 0% (human, severe renal impairment; oral, 375 mg).
With COc1ccc2c(c1O)-c1c(OC)c(OC)cc3c1[C@H](C2)N(C)CC3.Cl the inhibition was 0.876% (rep main protease; reporter gene (Gaussia luciferase), inhibitor; 20 µM).
For CC(=O)N1CCN(C(=S)c2ccc(-c3cccc(Cl)c3)o2)CC1, the Hill slope was 1.3 ± 0.12 (rep nsp14 N7-methyltransferase; N7-methyltransferase activity, inhibitor, Py-FLINT).
With Cc1nc(C(=O)N2CC[C@@H]([C@@H]3CCCN3C(=O)c3cc(O)c4ccoc4c3)C2)cc(=O)[nH]1 the inhibition was 12% (rep main protease; Mpro enzyme activity, inhibitor; 5 µM, high-throughput screen, mean of runs).
With NC(=O)[C@@H](CCC(F)(F)F)N(Cc1ccc(-c2ncon2)cc1F)S(=O)(=O)c1ccc(Cl)cc1 the inhibition was 0.115% (rep main protease; reporter gene (mKate2), inhibitor; 20 µM).
For O=C(N[C@@H]1CC[C@H]2C[C@@H]1CN2C(=O)c1cccc(-n2cncn2)c1)c1cc2c(=O)[nH]ccn2n1, the inhibition was 12.2% (rep main protease; enzyme activity, inhibitor; 5 µM, run 1).
Cc1nn(-c2ccc(Cl)cc2)c2c1C(c1ccc(Cl)cc1Cl)C(C#N)=C(N)O2 (stereo not drawn) has an inhibition of 4.85% (rep main protease; 3CL protease activity; 0.001 µg/mL, 120 min, enzyme 1 ng/mL).

A few entries again:
For O=C(N[C@@H]1CC[C@H]2C[C@@H]1CN2C(=O)c1cccc(-n2cncn2)c1)c1cc2c(=O)[nH]ccn2n1, the inhibition was 12.2% (rep main protease; enzyme activity, inhibitor; 5 µM, run 1).
Cc1nn(-c2ccc(Cl)cc2)c2c1C(c1ccc(Cl)cc1Cl)C(C#N)=C(N)O2 (stereo not drawn) has an inhibition of 4.85% (rep main protease; 3CL protease activity; 0.001 µg/mL, 120 min, enzyme 1 ng/mL).
